Results of several laboratories.
Parts stem from different laboratories: compare values within a part only. Positions count from the first letter of the parent shown.

Series 1 — method: competition protein-binding microarray; molecule type: double-stranded DNA, one strand shown; sample: in vitro; tested at: 2 µM; together with: Cbf1 competitor, 0.05 µM; direction: higher = stronger binding; shared flanks, not repeated: … GTCTTGATTCGCTTGACGCTGCTG
Target: Phosphate system positive regulatory protein PHO4, full length, GST-tagged (PHO4, Saccharomyces cerevisiae, UniProt P07270, residues 1-312)
Setting: whole 60-bp probe, lowest competitor level
Target sequence (chain): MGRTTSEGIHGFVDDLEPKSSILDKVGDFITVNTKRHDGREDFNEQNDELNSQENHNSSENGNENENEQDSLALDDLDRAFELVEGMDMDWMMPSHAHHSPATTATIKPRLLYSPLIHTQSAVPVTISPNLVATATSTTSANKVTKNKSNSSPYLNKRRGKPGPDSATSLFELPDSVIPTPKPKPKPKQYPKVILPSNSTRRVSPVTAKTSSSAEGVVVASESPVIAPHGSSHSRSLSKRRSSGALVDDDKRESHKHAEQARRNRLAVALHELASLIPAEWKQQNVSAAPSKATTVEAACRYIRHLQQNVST
Oligonucleotide	fluorescence intensity
CTTTCCCGATCTTGTCGTGTGGGTGTAGCACATTTG	5990 a.u.
CTTGCGATTCCTCTCCTCGTGAGAGGAGATACCGTT	6540 a.u.
GAGCAGAGTGAAAAGCACGCAAAGAGACATAGTCGG	5740 a.u.
CTTTCCCGATCTTGGATTGTGGGTGTAGCACATTTG	4780 a.u.
TTTCTTGGAATTTTTCACATGTTTGCAGTGAATAAA	5890 a.u.
CGTCCTAGTGATTGTCACGCCACTTCCATGAGGAAG	6970 a.u.
GAGGCACTGCCTCTCCGCGTGAATGTCACTGAGTCG	5870 a.u.
TGCGCAACAACTTTTCACGTGAGTTTATGTCTAGAA	11000 a.u.
ATCAACATCGGCCTCCCCGTGCTAATATGTTAACAG	13300 a.u.
CGGGGTTAAGTTTGTTGCGTGGGTGGCTTGCAGCAG	6810 a.u.
TGAAACAATTCGCGTCGCGTGGGACCCGAAAAGGGC	9060 a.u.
CTTTCCCGATCTTGCATAGTGGGTGTAGCACATTTG	5040 a.u.
ACAGGACTTCCAGGACACGTTTCTGGATTCATCCCT	12800 a.u.
TATTACGCCTGCAACCCCGTGCTAAGCTAGAATGTC	9750 a.u.
TTTGCAAGTATATATCTGTATGTATCCATATTTAGA	3470 a.u.
GCAATTGGATCTCACCACGTGGATTTAAAGATGGAC	16800 a.u.
GGCCTTAACGGCAGCATCGTGGATTAACTTGGATTT	8270 a.u.
CTAACGAAGGTTTGGTCGGTGGGTGACAAGCCAAGT	3810 a.u.
TTTGATTGGTAAACACACGTGGTTACATGAATTCTT	17900 a.u.
CGGGGTTAAGTTTGGTCTGTGGGTGGCTTGCAGCAG	4430 a.u.
CCGCGGATGATTTCTCACGTTTATCTGAAGAGGACT	9310 a.u.
GATTATTGGCTAAGTACCGTGATGGTGGTAAGATTG	5050 a.u.
GAGTTGCTTGAGGGTCTCGTGATGGCATCTTGCTGT	6310 a.u.
CTTGTTAATCTTATCCATGTGGAATCCCCACCACCA	8110 a.u.
TAACGTTCGTCGGGACATATGACTTGAAAAATGTCC	3830 a.u.

Series 2 — method: RNA Bind-n-Seq; molecule type: RNA; sample: in vitro; tested at: 1 µM; setting: whole 134-nt RNA, ends assumed; together with: 150 mM KCl; reference: input library; direction: higher = stronger binding
Target: Ras GTPase-activating protein-binding protein 1, RRM domain (G3BP1, Homo sapiens, UniProt Q13283)
Sequence of UniProt Q13283 (whole entry, looked up): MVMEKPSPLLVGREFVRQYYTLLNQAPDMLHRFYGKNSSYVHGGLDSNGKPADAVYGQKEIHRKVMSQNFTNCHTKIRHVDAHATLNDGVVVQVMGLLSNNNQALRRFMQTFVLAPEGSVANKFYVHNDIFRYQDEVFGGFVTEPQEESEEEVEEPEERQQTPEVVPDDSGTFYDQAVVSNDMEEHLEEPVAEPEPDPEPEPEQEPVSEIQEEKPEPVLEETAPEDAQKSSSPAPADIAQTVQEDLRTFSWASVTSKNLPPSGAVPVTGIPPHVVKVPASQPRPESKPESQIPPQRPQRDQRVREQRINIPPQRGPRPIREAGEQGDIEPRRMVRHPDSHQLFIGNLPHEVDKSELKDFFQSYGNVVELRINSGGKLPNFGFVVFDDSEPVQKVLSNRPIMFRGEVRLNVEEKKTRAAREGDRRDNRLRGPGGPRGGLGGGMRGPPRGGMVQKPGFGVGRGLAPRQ
Shared flanks, not repeated: GGGAGUUCUACAGUCCGACGAUC … UGGAAUUCUCGGGUGUCAAGG
Oligonucleotide	log2 enrichment
CACAGACAACACGCACCCACACAGACACAGAGGGAAGGGGUAGGGAUGGGGACAGGGUGCACAGCAGGGCGGGGUAGGACCCCAGCCCCU	-0.0461
UGGGAGGUGGAUUUUGUUUAUUUUUUUAGCUCAUUUCCAGGGGUGGGAAUUUUUUUUGAAUAUGUGUCAUGAAUAAAGUUGUUUUUGAAA	1.9
CUGUGCUACACAUCGUAUGUACCGAAUCGUGUGUGUGUGUGUGUGUGUGUGUGUGUGUGUGUAAAGUAUUAUGUUACGCCGUUCGGAUCU	0.19
AGUCCUGUGCUACACAUCGUAUGUACCGAAUCGGCCCCCGGGGCCCCCGGCCCCCGGGAAAGUAUUAUGUUACGCCGUUCGGAUCUGCAC	-0.483
CUCAAGUCCUGUGCUACACAUCGUAUGUACCGAAUCGGUGGAGGUUUUUUUGGAAAGUAUUAUGUUACGCCGUUCGGAUCUGCACUUCCA	-0.229
UGGCCCUGGUGGCAUGCGGGGAGAAAGAGGUGGCCUCAUGGAUCGUGGUGGUCCCGGUGGAAUGUUCAGAGGUGGCCGUGGUGGAGACAG	0.956
CUCAAGUCCUGUGCUACACAUCGUAUGUACCGAAUCGGGAAAGGGUGGGUGGGAAAGUAUUAUGUUACGCCGUUCGGAUCUGCACUUCCA	0.683
UCCUGUGCUACACAUCGUAUGUACCGAAUCGGGGUGGGGUUUUUUUGGGGUUUUUGGGGAAAGUAUUAUGUUACGCCGUUCGGAUCUGCA	0.709
GCAGGAAAAAAAAACAAAUGGAAAUGCUUCGGAUAGUGGCAGGGGUGGGGGUUGCUAAGGAAAGGGUGGGAUGGGAGUGGGUAAAGAGUU	1.12
CUCAAGUCCUGUGCUACACAUCGUAUGUACCGAAUCGGAAAGGAGGUUUUUGGAAAGUAUUAUGUUACGCCGUUCGGAUCUGCACUUCCA	-0.225
AAGUCCUGUGCUACACAUCGUAUGUACCGAAUCGGGAGGGUUUUUUUGGGAAAGGGAAAGUAUUAUGUUACGCCGUUCGGAUCUGCACUU	0.712
UCAAGUCCUGUGCUACACAUCGUAUGUACCGAAUCGGGAAAGGGAGGGAAAGGGAAAGUAUUAUGUUACGCCGUUCGGAUCUGCACUUCC	0.769
CACAGACAACACGCACCCACACAGACACAGCGGGAAGGGGUUGGGAUGGGGACAGGGUGCACAGCAGGGCGGGGUAGGACCCCAGCCCCU	0.137
UGUGGCCGCAGGACGAGUACAUCGUGGAGUACUCACUAGAGUAUGGCUUCCUUCGCCUGUCGCAGGCCACCCGCCAGCGCCUGAGCAUCC	-0.247

Series 3 — method: universal PBM; molecule type: double-stranded DNA, one strand shown; sample: in vitro; tested at: 600 nM; direction: higher = stronger binding
Target: Sal-like protein 4, full length isoform A (SALL4, Homo sapiens, UniProt Q9UJQ4, residues 1-1053)
Sequence of UniProt Q9UJQ4 (whole entry, looked up): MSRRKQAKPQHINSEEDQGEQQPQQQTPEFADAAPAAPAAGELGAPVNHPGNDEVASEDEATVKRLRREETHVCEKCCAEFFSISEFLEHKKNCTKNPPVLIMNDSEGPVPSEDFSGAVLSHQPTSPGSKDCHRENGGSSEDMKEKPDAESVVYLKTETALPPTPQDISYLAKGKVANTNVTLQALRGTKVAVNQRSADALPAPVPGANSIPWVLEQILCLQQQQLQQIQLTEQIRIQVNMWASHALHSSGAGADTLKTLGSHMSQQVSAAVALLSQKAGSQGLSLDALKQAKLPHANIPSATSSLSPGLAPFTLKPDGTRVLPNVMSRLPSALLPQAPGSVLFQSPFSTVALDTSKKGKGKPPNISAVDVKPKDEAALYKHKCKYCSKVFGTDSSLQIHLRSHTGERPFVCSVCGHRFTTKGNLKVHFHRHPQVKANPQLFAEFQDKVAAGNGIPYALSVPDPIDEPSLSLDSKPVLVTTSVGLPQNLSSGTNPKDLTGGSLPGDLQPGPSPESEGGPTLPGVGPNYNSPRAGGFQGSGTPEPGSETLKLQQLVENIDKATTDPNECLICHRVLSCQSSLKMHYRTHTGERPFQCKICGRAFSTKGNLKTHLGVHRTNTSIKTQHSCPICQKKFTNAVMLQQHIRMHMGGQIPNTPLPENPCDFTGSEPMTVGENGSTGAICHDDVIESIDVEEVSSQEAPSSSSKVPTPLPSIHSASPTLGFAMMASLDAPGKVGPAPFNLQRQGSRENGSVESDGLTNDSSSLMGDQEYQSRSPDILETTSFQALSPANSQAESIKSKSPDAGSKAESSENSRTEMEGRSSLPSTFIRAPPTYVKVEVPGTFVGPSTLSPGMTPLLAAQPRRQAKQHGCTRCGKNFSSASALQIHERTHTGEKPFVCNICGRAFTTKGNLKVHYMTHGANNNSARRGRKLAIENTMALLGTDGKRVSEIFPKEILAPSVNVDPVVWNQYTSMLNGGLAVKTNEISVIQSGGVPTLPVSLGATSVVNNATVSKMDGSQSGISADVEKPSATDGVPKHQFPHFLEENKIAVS
Setting: 8-mer, flanks averaged, mean of replicates
Oligonucleotide	E-score
CTAGCGCC	-0.271
GCCTATCC	-0.181
CTAAGTAA	0.221
GGTCCTAC	-0.242
GAACCGCA	-0.194
GTCGCATA	0.141
ATACCGGA	0.026
GCCGTATA	0.26
ATGTAAGG	0.224
GGGTGTAA	-0.0201
CACTGTCA	0.055
CGAGTCTA	-0.102
TGCCGTAA	-0.0242
ATTGCTGA	0.166
GTCGGGGA	-0.327
AGCCAAAG	-0.0179
ACTCCAGT	0.0329
CGCAATCC	-0.0631
TCCAGAAA	0.114
AACTATTG	0.331
ACCTGAGA	-4e-05
GTTAAGAA	0.064
GGGATCTA	-0.127
CCAGCTAG	-0.136
ATCGATAC	0.147

Series 4 — method: DHFR PCA, deep sequencing; sample: yeast; together with: (+)-ABA 58 µM; reference: wild-type fitted maximum; direction: higher = stronger binding
Target: ABI1, truncated, D143A, DHFR fusion (Arabidopsis thaliana)
Setting: methotrexate growth selection, single substitutions
Parent: PYL1, truncated, DHFR fusion (Arabidopsis thaliana); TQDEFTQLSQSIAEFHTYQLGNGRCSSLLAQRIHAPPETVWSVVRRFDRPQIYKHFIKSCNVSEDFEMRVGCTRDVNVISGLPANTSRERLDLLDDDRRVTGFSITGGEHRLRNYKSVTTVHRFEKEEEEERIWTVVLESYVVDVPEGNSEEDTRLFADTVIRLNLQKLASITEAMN; partner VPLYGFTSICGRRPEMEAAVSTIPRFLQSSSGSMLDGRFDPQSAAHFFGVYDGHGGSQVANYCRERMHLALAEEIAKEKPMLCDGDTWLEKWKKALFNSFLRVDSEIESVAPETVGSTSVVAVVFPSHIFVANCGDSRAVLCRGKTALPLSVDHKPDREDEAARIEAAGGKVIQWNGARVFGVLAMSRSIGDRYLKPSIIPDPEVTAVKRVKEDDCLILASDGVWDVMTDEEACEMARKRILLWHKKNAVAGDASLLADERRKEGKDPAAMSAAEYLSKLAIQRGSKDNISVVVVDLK
Variant	relative binding score [%]
H122Y	16
W41L	0.499
Q7Y	97.5
W41G	-2.67
I172K	53.2
P146I	14.8
S171A	86.8
E14G	47.1
V137F	7.21
N114A	45.4
T173V	83.9
A35K	2.31
I172C	67.2
A30M	100
I105N	23.2
E130L	90.8
G148K	50.7

Single results of other studies — CCND3: CCND3, cyclin fold, Cln2 fusion (human)
P1: CDAN1 docking peptide (human); RGARSQLFPPTEA; partner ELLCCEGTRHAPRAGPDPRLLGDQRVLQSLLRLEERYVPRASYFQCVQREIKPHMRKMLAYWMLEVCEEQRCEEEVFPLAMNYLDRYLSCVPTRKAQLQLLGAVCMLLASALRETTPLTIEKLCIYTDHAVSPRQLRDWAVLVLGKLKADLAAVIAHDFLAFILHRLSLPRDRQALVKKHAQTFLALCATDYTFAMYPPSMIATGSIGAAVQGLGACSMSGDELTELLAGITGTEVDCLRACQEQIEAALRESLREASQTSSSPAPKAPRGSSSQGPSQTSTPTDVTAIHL
Substance	tested on	assay	system	setting	how to read	quantity	result
P1 S5A	CCND3	yeast growth competition, sequencing	yeast	weak parent motif	reference: not given, higher = stronger binding	normalised enrichment score	-0.0529
LLRRLQDVANDRG	Saccharomyces cerevisiae	binding, competitive growth deep sequencing	peptide, cyclin E1-Cln2 fusion strain	concentration not given, peptide library 2	direction not given	growth enrichment score	0.606
GSPLKKLFTSTAL	Saccharomyces cerevisiae	binding, competitive growth deep sequencing	peptide, cyclin E1-Cln2 fusion strain	concentration not given, combined peptide libraries	direction not given	growth enrichment score	-0.145
P1 Q6A	CCND3	yeast growth competition, sequencing	yeast	weak parent motif	reference: not given, higher = stronger binding	normalised enrichment score	-0.266

For quick reference, copied from above (series 3):
Oligonucleotide	E-score
TGCCGTAA	-0.0242
ATTGCTGA	0.166
GTCGGGGA	-0.327
AGCCAAAG	-0.0179
ACTCCAGT	0.0329
CGCAATCC	-0.0631
TCCAGAAA	0.114
AACTATTG	0.331
ACCTGAGA	-4e-05
GTTAAGAA	0.064
